Published values from different studies.
A part holds a random share of what one study measured. Positions count from the first letter of the parent shown.

Set 1 — target: CCNB2, cyclin fold, Cln2 fusion (human); technique: yeast growth competition, sequencing; medium: yeast; setting: weak parent motif; reference: not given; direction: higher = stronger binding; measurement: normalised enrichment score
Parent: HASPIN docking peptide (human); ASLRSVLFGLMNS
ASLRSVLFGLMAS [N12A]: 0.85
ASLRSVLFGAMNS [L10A]: 0.169
ASARSVLFGLMNS [L3A]: 0.0868
AALRSVLFGLMNS [S2A]: 0.229
ASLRSVLFGLMNA [S13A]: -0.272
ASLRSVAFGLMNS [L7A]: 0.109

Set 2 — technique: competition protein-binding microarray; molecule type: double-stranded DNA, one strand shown; medium: in vitro; concentration: 2 µM; together with: Cbf1 competitor, 0.05 µM; direction: higher = stronger binding; measurement: fluorescence intensity
Target: Phosphate system positive regulatory protein PHO4, full length, GST-tagged (PHO4, Saccharomyces cerevisiae, UniProt P07270, residues 1-312)
Setting: whole 60-bp probe, lowest competitor level
Target sequence (chain): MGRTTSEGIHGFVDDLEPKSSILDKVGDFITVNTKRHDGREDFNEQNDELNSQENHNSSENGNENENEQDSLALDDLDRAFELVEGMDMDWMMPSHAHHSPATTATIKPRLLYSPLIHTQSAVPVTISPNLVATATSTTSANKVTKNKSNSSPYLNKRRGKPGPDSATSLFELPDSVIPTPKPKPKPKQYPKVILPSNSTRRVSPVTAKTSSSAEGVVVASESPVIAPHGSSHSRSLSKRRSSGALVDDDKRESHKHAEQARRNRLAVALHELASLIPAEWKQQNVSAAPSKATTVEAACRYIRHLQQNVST
CATACCCAACCTTGGCACGTGGGTGAAGATATTTGTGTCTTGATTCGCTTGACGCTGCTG: 19300 a.u.
AACCTGTCCAAATACCACATGCTTTCCATCGAGCCAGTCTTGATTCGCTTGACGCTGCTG: 8620 a.u.
AAATTACTAAGTTGGACCGTGGGTGACGCCGTATGAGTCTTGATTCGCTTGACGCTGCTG: 8200 a.u.
AACCAGAGCCCAATAAACGTGGTCGTTGTCGAGTAGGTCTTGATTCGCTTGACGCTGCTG: 13900 a.u.
TGCGCAACAACTTTTCACGTGTAATTATGTCTAGAAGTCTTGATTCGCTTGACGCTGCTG: 13100 a.u.
ATATCAAATTCATTGAAGGAGGTCCCAACCGCGAGAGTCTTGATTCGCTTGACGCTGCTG: 3210 a.u.
CCGCTATATACTTTTCACGTGGGACCTGCAAAATAAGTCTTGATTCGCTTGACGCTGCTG: 16700 a.u.
GCGGAGGGGGCAGCCCATGTGCTGCGATTCGCTCCCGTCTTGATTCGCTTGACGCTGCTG: 10300 a.u.
CATGGGGTTTATCCACTCGTGTCCTTGGTTTCATGGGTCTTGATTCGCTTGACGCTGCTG: 8310 a.u.
GGAGATGATTTAACACCCGTGGAACTGAAAAAAGCCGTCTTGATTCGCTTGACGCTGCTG: 7240 a.u.
CTTATAAACAGCGCTGACGTGCTTTGACTTTGTTCCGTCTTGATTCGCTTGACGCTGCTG: 5540 a.u.
CTTCTGTAAATTTGTCGCGTGGGTGGACGCGCCCCGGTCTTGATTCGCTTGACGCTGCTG: 7990 a.u.
CATACCCAACCTTGAATAGTGGGTGAAGATATTTGTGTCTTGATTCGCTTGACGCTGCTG: 3970 a.u.
CTTTCCCGATCTTTTCACGTGTTGTTAGCACATTTGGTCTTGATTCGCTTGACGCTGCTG: 14500 a.u.
AAAGCGGTAATTTGTCACCGGACTTCACATATCTATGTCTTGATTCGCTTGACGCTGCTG: 2940 a.u.
CGGGGTTAAGTTTGTCACCTAACTTGCTTGCAGCAGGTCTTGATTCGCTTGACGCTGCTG: 3470 a.u.
AACATGAAATACGAATTTGTGATGAAGATACCCTCAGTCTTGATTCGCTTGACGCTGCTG: 3030 a.u.
CTTTCCCGATCTTGTTCGGTGGGTGTAGCACATTTGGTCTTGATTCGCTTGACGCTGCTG: 3970 a.u.
CGGGGTTAAGTTTGCAAAGTGGGTGGCTTGCAGCAGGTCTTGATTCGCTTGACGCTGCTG: 4900 a.u.
CTAACGAAGGTTTGCGTGGTGGGTGACAAGCCAAGTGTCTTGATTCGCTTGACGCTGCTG: 5990 a.u.
TTGTTTCCTGGGAACTACGTGCAAATCAACAAGAAAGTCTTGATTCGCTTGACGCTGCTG: 6040 a.u.
CATACCCAACCTTGTTGCGTGGGTGAAGATATTTGTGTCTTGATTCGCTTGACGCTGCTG: 7020 a.u.
CTTCTTTTTTTGGATTACGTGCTTTTAAAGCGGGATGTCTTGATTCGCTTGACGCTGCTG: 7180 a.u.
CGTCCTAGTGATTGTCACCAGACTTCCATGAGGAAGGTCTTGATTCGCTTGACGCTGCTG: 3670 a.u.

Set 3 — technique: RNA Bind-n-Seq; molecule type: RNA; medium: in vitro; concentration: not given; reference: input RNA pool; direction: higher = stronger binding; measurement: bound/input enrichment
Target: RING finger protein unkempt homolog, zinc fingers 1-6, GST-SBP tag (UNK, Homo sapiens, UniProt Q9C0B0, residues 30-357)
Setting: RNA with constant flanks, human and mouse sites, ends assumed
Construct (chain): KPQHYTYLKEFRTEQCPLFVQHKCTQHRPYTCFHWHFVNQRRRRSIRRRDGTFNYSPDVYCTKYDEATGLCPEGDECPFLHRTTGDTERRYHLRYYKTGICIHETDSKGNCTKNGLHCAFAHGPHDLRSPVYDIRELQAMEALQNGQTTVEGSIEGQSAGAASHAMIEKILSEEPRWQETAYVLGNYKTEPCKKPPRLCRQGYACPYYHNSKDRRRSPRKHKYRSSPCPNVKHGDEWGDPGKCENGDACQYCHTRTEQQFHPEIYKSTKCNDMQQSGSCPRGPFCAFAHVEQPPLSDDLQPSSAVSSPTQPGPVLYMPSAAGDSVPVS
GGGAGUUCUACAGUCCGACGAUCGGUUGGAACUUGCAUUUGAAACAAAGUGCUGGCUUUUUUGAAGACUUGUGUAGGAACACAUUCAAAAAGCCCCUUUCUGGUUGUGAGAGAGGAAAAAAAAGUAUGGAGGCCUUAUUUUCACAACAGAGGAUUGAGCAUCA: 0.17 ratio
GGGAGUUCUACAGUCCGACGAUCCACCACUUCUAUGAUUUUGAAAGAGAUGCAUAUCUUUUGCAACGAAUGGAAGAAUUUAUUGGAACAGUAAGAGGUAAAGCAAUGAAAAAAUGGGUUGAAUCCAUCACUAAAAUAAUCCAACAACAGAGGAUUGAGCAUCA: 0.199 ratio
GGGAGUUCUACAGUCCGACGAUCGUACACUAUAUCUACACUUACUCAUUAUUUAAAAAGAAUAAUGAAAAAUCUAGAUCAAUUCUUCAAUUUGAUUGAACUGUUCAGCCUUUUCAAGAUUUCUUUAUUUACAAAUGAUUACAUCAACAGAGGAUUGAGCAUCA: 0.577 ratio
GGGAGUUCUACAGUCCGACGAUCAUAAUGCAGGAAUACCAGUUAGAACAGAAAGAUGUGAAUUCUCUUCUUAAAUAUUUUGUUACUUUUGAAGUCGAAAUCUUCCCUCCUGAAGACAAGAAAGCAAUACGAUCAAAAUGAAGACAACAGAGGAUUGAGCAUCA: 0.361 ratio
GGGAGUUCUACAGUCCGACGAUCAUGGAGCCCAGAGCUCCGUGCCUGAUGGGUGAGCACUCAACAACUGAGGCACAUCCCUAGCCACUCCUGAGUGCUGUCCCUCUGCCAGGCUGAGAGCUGGGAGGUGGCGCCUAAGGGGAUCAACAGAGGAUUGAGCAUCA: 0.0555 ratio
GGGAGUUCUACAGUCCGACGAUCCUCUUCGAGGCCAUCCUGCAGUUCCAGAUGAACCAUAGCGUGCUUCAGCAGAAGGCCCGAGACAUGUAUGCAGAGGAGCGGAAGAGGCAGCAGCUGGAGAGGGACCAGGCUACAGUGACACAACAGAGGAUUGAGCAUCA: 0.124 ratio
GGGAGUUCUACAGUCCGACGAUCCAUGAAGGAUGCCAAGAAGUUUAAGGAAUAUGGGAGAAAUAGUGUGGAAAUUAAGAAGAAACUAGGUCUGAUAUUCAAAUGGACAAACUGCCAGUUUUGUUUCCUUUCACUGGCCACAGUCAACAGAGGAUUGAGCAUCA: 0.64 ratio
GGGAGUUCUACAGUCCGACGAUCGCUCUUGGGAAUGUAAUCAGCGCCUUGGGGGACAAGAGCAAGAGAGCCACCCAUGUCCCUUACAGAGACUCUAAGCUGACAAGACUCUUGCAGGAUUCCCUUGGGGGUAACAGCCAAACCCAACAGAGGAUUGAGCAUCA: 0.12 ratio
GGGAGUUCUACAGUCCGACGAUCCCAGAAGCUGGGAACACACUGCGUCGUUGGCGCUGCCACGUACAGAGAUUCUUCUACCGUAUCUAUGCCACCCUACGCAUCGAGGAGCUUUUCAGCAUCAUCCGAGACUUUCCAGACUCCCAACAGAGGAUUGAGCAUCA: 0.181 ratio
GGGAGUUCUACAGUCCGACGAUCGACAAGGAAAAUUUGUACAGAGCUCUCCUGCUUACAACCUCAAAUAAAGAAGAUACAUUAUUUUUAAAGGAGCAACUUCGCAAAGCGGAGGAACAAGUCCAGGCAACACGGCAAGAACUUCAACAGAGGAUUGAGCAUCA: 0.259 ratio
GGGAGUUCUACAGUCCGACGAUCACAGACACGCUGGACUGUUCUUAAAUGCAAACAGCAAGACAUGUAUUCUUAAUAUGUAAUUUGUGAUAUUUGAAAAUAAUGUUUUAAGGUGUAUCCAAGCUACAUAUGUAAUGUAGGAGGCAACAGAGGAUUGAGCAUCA: 0.221 ratio

Set 4 — technique: RNA Bind-n-Seq; molecule type: RNA; medium: in vitro; concentration: 365 nM; reference: no-protein control; direction: higher = stronger binding; measurement: RBNS enrichment (R)
Target: RNA binding protein fox-1 homolog 2, RRM domain, GST-SBP tag (RBFOX2, Homo sapiens, UniProt O43251-10, residues 100-194)
Setting: natural RNA segment, single round, ends assumed
Construct (chain): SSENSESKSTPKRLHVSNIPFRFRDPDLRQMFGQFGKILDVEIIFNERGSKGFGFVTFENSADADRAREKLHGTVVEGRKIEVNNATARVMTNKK
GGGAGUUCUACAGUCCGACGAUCCGCACAUUCGGCUUGGUGAAAUCCUUCUCUAAAGCCUCUUUUUGUAUUUUUAUAACUAAACAGAGGAAGUCUUCAGAAGACCUCGCUUUAAAACAAAUUUGUGCAAACACUGGAAUUCUCGGGUGCCAA: 0.526
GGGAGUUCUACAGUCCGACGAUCGAAGCAAAGAAAAUACAGGAAAAAAUAAAUCACAAUCUAUUUUUCCAAAGGGGAAACACAUUUGAAAGCUUUUAAAAUGUAGACUUCAUUAUCCAUACCCAUGGAAACUAUGGAAUUCUCGGGUGCCAA: 0.661
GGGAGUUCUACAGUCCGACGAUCCAAUAUCUUGAGUUUGUAGCUUAGAAUUGGGAAGGCACUGAACAUCUGGAAGACAAGGUCAUUUCAUCUUGAGAUCAUGGUGAAAUAUUUUGGAUAUAUAAAUUCCUUAAUGGAAUUCUCGGGUGCCAA: 0.321
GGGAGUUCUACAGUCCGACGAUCCCUACGUGACUGACUACAGUUGGUUUGGAGGCCCUGGACCUCUGUGGCGUCUUUGAAGCCUGGCCUCUUGGCUUCCUUUUGGACUUUGCUUGCUUUCAUUUGAAGUUUGGUGGAAUUCUCGGGUGCCAA: 0.515
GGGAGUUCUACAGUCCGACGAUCACAGUUCUCUCUGGAGGCUUUGUGGGAUUGGGAGAGCUGCUACAGAGGAGUACCAUGAAAGCACUGAGGAAACAUUUCUUCAUCGUGUUACACUGACAACCCACAUCUUGUGGAAUUCUCGGGUGCCAA: 0.199
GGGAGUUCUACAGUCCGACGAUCGCUUCCCGAUUCUCAGGUCUUCUCGGAGGCAGAUCCCUUCCUGAGCUCCAGGCUCUGACUUCACCGUCACCCUCUGAAGAGCUAUGAUCAUGCUGGUGAGAAAGUAUGAUUGGAAUUCUCGGGUGCCAA: 0.351
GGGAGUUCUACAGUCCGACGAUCUCACUGGAACCUCCCUGGGCCUGUCUCAGAUUGGGAUUAACAUAAAAGAGUGGAACUAUCCAAAAGAGACAGGGAGAAAUAAAUAAAUUGCCUCCCUUCCUCCGCUCCCCUGGAAUUCUCGGGUGCCAA: 0.435
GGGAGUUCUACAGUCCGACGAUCUGCCUUCAUUAGGACGUUCUUUUUAGAAGCAGUUCUUCCAGCUCUGGAUCAUAGAGUGACCUUUAAUAAGUUAAAAAAACGAGGACUCCUUAAUUCUGCUAGAGUUAACCUGGAAUUCUCGGGUGCCAA: 0.297
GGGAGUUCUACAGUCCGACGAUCAAGGAUCAUCCUACUGCUAAGUCCGUGUCUCUUCUUGCUUCUAGUGUUUUGGCCACGCCUCACCAAAUGUCUGUAAUGACCCAGUACUCACAACAUGUUCAGGAGGAGCUUGGAAUUCUCGGGUGCCAA: 0.268
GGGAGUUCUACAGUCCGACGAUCGAAUCAGUGGUAGGAGCAGUGAAGUAAAUUCUAUGGAGUACAUUUCUAAAAUACCACAUUUCUGAAAUCAUAAAUAAGUUUAUUCAGGUUCUAACCCUUUGCUGUACACAUGGAAUUCUCGGGUGCCAA: 0.433
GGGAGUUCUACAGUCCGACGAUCUCGCCUAUUAUACAAACACACAAAACAUUUUUGGAGGCCUCAGUUAUGAGUGACAGAGCUUUCUGUGUAUAAUUUGUCUAAAUAAUUUGUCUAAUAAAAAUGUUUUCUAAUGGAAUUCUCGGGUGCCAA: 0.667
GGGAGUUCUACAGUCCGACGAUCUUAGGUUUUUGUUGUGUUUUUGGUUAUGCUGUCCCCCUUCUCCUUGGGGAGAUAUUUGGGAGCAAACUUAUUUAGAUUUAGAGUAAACUUUUCAUUAUAGAGCAAGUAAAUGGAAUUCUCGGGUGCCAA: 1.03
